Measurements pooled from the literature.
Converted amounts (≈) assume the structure as drawn.
Organism: Mycobacterium tuberculosis

Structure (SMILES) | assay | test system | setting | endpoint | value
CC(C)(C)C1CCc2c(sc3nc(SCCCN4CCCCC4)nc(N)c23)C1 (racemic) |  | K204 | 100 µM, compound toxic alone, together with: kanamycin | kanamycin MIC | toxic
Cc1cc(/C=C/c2ccc(C(=O)O)cc2)ccc1OCCc1scnc1C |  | CDC1551 rel knock-in, nutrient-starved | concentration not given, 7 days | log reduction viability | 0.05 log10
CN[C@@H]1[C@H](O)[C@H](NC)[C@H]2O[C@]3(O)[C@H](O[C@@H]2[C@H]1O)O[C@H](C)C[C@H]3NC(=O)Cc1ccc(F)cn1 | microbial growth | ATCC35837 |  | MIC | 6.3 µg/mL (≈ 13.4 µM)
NC1=NC2(CCCCC2)N(c2ccc(OCc3cn(CCCCOc4ccc5ccc(=O)oc5c4)nn3)cc2)C(N)=N1 | bacterial growth | compound-resistant fbiC or fgd1 mutant |  | MIC50 | 1.6 µM (≈ 0.913 µg/mL)
Cc1[nH]c(=O)c(CNC(=O)c2ccc(C(F)(F)F)nc2)c2c1CCCC2 |  | MDR, INH and RIF resistant |  | MIC | 0.9 to 3 µg/mL (≈ 2.46 to 8.21 µM)
Nc1nc(SCCCN2CCCCC2)nc2sc3c(c12)CCC(c1ccccc1)C3 (stereo not shown) |  | K204 | 100 µM, compound toxic alone, together with: kanamycin | kanamycin MIC | toxic
CN[C@@H]1[C@H](O)[C@H](NC)[C@H]2O[C@]3(O)[C@H](O[C@@H]2[C@H]1O)O[C@H](C)C[C@H]3NC(=O)Cc1ccccn1 | microbial growth | ATCC35837 |  | MIC | 3.1 µg/mL (≈ 6.85 µM)
Nc1nc(SCCN2CCCCC2)nc2sc3c(c12)CCCCC3 |  | K204 | 100 µM, compound toxic alone, together with: kanamycin | kanamycin MIC | toxic
CN[C@@H]1[C@H](O)[C@H](NC)[C@H]2O[C@]3(O)[C@H](O[C@@H]2[C@H]1O)O[C@H](C)C[C@H]3NC(=O)Cc1cscn1 | microbial growth | ATCC35837 |  | MIC | 1.6 µg/mL (≈ 3.49 µM)
Cc1cc(=O)oc2cc(OCCCCn3cc(COc4ccc(N5C(N)=NC(N)=NC56CCCCC6)cc4)nn3)ccc12 | bacterial growth | TA-C-resistant fbiC or fgd1 mutant |  | MIC50 | 1.6 µM (≈ 0.935 µg/mL)

For quick reference, copied from above:
Structure (SMILES) | assay | test system | setting | endpoint | value
Nc1nc(SCCN2CCCCC2)nc2sc3c(c12)CCCCC3 |  | K204 | 100 µM, compound toxic alone, together with: kanamycin | kanamycin MIC | toxic
